Assay results collected from several papers.
Each line is one published result; not all experiments were run side by side.

Compound	host	matrix	route	dose	time	setting	concentration [ng/mL]
CCOC(=O)[C@@]12C[C@@H]1[C@@H](n1ccc3c(NC)nc(C#Cc4ccc(Cl)s4)nc31)[C@H](O)[C@@H]2O	male Sprague-Dawley rat	plasma	intravenous	0.5 mg/kg	30 min	–	11.8
COc1ccc2c(=O)n(C)c(-c3ccccc3)nc2c1	male Sprague-Dawley rat	plasma	oral	30 mg/kg	30 min	–	34.7
Cc1noc(C)c1Cn1cc(N2C(=O)CN(Cc3cccc(O)c3)C2=O)cn1	male Sprague-Dawley rat	plasma	oral	30 mg/kg	30 min	–	38.5
CCc1cc(-c2noc(-c3cc(OC)nc(C4CCCC4)c3)n2)cc(C)c1OC[C@@H](O)CO	Wistar rat	plasma	oral	0.1 mg/kg	24 h	single dose	1.5
O=C1CCC(N2Cc3cc(CO)c(F)cc3C2=O)C(=O)N1 (centres unmarked)	male CD-1 mouse	plasma	intravenous	1 mg/kg	1 h	–	36.7
O=c1nc(N2CCN(CC3CCCCC3)CC2)sc2c([N+](=O)[O-])cc(C(F)(F)F)cc12	CD-1 mouse	lung	intravenous	10 mg/kg	1 h	–	2190
NCc1cc2c(cc1F)C(=O)N(C1CCC(=O)NC1=O)C2 (centres unmarked)	male CD-1 mouse	plasma	oral	10 mg/kg	2 h	–	50.3
COc1cccc(-c2n[nH]c(SCc3ccccn3)n2)c1OC	female Sprague-Dawley rat	plasma	intravenous	1 mg/kg	4 h	single dose	43.9

A few entries again:
Compound	host	matrix	route	dose	time	setting	concentration [ng/mL]
CCOC(=O)[C@@]12C[C@@H]1[C@@H](n1ccc3c(NC)nc(C#Cc4ccc(Cl)s4)nc31)[C@H](O)[C@@H]2O	male Sprague-Dawley rat	plasma	intravenous	0.5 mg/kg	30 min	–	11.8
